# Measurements of several laboratories.
# Every numbered part comes from another study and shows a few of its results, in no order. Positions count from the first letter of the parent shown.

# Study 1 — target: CREB3L2, bZIP domain (human); method: DHFR protein complementation; matrix: yeast; reference: wild-type JUN-FOS pair; direction: higher = stronger binding
# Setting: single substitutions, most at no-binding floor
# Starting sequence: JUN, bZIP domain (human); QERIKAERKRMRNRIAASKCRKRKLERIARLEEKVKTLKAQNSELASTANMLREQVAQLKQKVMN; partner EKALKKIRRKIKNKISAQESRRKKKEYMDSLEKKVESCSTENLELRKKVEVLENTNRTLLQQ
Substitution,binding fitness
K36M,-1.17 natural log
E44N,-1.65 natural log
I28N,-1.54 natural log
K34L,-1.32 natural log
A40G,-1.33 natural log
T48G,-1.47 natural log
L52R,-1.53 natural log
L31C,-1.49 natural log

# Study 2 — method: RNA Bind-n-Seq; form: RNA; matrix: in vitro; tested at: 365 nM; reference: no-protein control; direction: higher = stronger binding
# Target: RNA binding protein fox-1 homolog 2, RRM domain, GST-SBP tag (RBFOX2, Homo sapiens, UniProt O43251-10, residues 100-194)
# Setting: natural RNA segment, single round, ends assumed
Sequence,RBNS enrichment (R)
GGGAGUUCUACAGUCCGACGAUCCUAACCAAUUUUUACCUUCUGCCUAGAAUGAUGUACACAUAGGAGAGAAAGCUAUCAUGUUCCCGAAGUGCCUUGUUUUCUCUGAUAGAAAUAUAUUUAUAAGGACCUAUUGGAAUUCUCGGGUGCCAA,0.629
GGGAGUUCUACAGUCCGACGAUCUAUAAGUUUCUUAAGGAAUUGUCCUGCUGACCUGUAUCUAACUAAUGAACUUAAGGGUCUGGGUUUUUUUUUCUUUUGUUUGUUUGUUCAUUUUGUUCAUUUGUUUGUUUUGGAAUUCUCGGGUGCCAA,9.55
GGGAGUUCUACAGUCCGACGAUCGCUUUUCACAGGCGUGGGAUCCAGGAUGGUGUCCUCUGUGAGGACUUGAACUCUGGGGCUUUAAUUCCACUGUUUAAUUUUCAGGUACCACAGCAGCAAAGCACAGAGUGUGGAAUUCUCGGGUGCCAA,0.402
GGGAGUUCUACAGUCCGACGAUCGUGUACUUUUGGUCAUCCUGGGAUGCUUCUAACUUCACUGUGUGUAGGCGUUUGCCUUGGAAAUGUGGAAAGUGCUUUACUAAAUAAUAAAAUUAAUUUUGUUUACGAGUUGGAAUUCUCGGGUGCCAA,0.774
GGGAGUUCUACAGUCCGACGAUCUAAGGAUCUCUAUUUCAUCUCUUGAACGAUGAAAAUAGUGACGUAUAUAUAGUACUUCUAUAAAUAACAGUUUUUAAGAAAUAGGUAAGUGGGGCAGGUUUGGUGGCUUCUGGAAUUCUCGGGUGCCAA,0.918
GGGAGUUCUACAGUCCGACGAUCAGUAUUCUUUUAUCAUAAAUUUUUAGCAUUUAAAAAUUCACUGAUGUACAUUAAGCCAAUAAACUGCUUUAAUGAAUAACAAACUAUGUAGUGUGUCCCUAUUAUAAAUGUGGAAUUCUCGGGUGCCAA,0.506
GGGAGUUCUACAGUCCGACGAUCUUCCCAUGUUGAUGAAAGUACUGCACAGUUUCAAAGGCAUGGUAAAUAAUGUGUUUCUUUCAUAUAUAUUUUUUUCCAAAAGCAGCAAAAAUUCAUAUCCAGUGAAGAUCUGGAAUUCUCGGGUGCCAA,2.23
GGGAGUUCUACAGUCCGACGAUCAGGACGCCAACAUGAGACCUGUAAUAAAAUAUGUAAUGGGGUUGAAAGCUGGGGAGGAGGAUCUACUGCUGUACAGCUAAUAAAUCAUAACGGAUUAACAAGUGCUCCAAUGGAAUUCUCGGGUGCCAA,0.488

# Study 3 — method: protein binding microarray; form: double-stranded DNA, one strand shown; matrix: in vitro; tested at: not given; reference: not given; direction: higher = stronger binding
# Target: Histone acetyltransferase KAT6A, winged helix 1, GST fusion (KAT6A, Homo sapiens, UniProt Q92794, residues 1-85)
# Setting: 8-mer, flanks averaged, mean of 2 arrays, mostly near background
# Residues (chain): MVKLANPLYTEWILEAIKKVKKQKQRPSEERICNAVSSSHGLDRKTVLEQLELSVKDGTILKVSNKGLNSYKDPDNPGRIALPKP
Sequence,E-score
GCCGACGA,0.203
GCGAGCGC,0.385
TATTGGCA,-0.292
AATCCTCG,-0.119
AGAGCGGA,0.151
CTCCCCAC,-0.191
CCTTAACG,0.113
ATCACTTG,-0.213

# Further values, each from its own experiment
# Starting sequence: PafA, mature enzyme, eGFP fusion (Elizabethkingia meningoseptica, UniProt Q9KJX5); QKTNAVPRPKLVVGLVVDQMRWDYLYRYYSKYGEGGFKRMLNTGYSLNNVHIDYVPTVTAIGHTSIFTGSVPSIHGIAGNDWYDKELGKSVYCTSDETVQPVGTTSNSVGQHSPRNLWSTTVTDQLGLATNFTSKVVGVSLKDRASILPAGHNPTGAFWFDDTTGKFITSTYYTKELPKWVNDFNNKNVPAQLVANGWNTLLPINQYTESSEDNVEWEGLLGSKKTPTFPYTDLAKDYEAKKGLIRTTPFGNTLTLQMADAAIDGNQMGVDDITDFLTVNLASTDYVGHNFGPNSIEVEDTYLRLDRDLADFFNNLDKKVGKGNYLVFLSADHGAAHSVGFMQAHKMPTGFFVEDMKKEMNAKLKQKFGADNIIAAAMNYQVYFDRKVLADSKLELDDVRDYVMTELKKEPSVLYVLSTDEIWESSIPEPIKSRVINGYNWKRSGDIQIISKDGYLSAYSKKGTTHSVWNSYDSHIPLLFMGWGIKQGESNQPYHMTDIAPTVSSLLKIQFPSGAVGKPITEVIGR
Substitution,target,test,test system,setting,how to read,measurement,result
D397V,"inorganic phosphate, free oxyanion",microfluidic competitive inhibition,"in vitro, cell-free expressed","not given, derived from inhibition constants, unchanged parent 615000 nM",lower = stronger binding,phosphate dissociation constant,709 µM

# Excerpt of the above (study 1):
Substitution,binding fitness
K36M,-1.17 natural log
I28N,-1.54 natural log
L31C,-1.49 natural log
